Published values from different studies.
Protocols differ between the studies behind these lines.
CBF1 full length, N-terminal tag: Centromere-binding protein 1, full length, N-terminal tag (CBF1, Saccharomyces cerevisiae, UniProt P17106, residues 1-351)
Sequence of UniProt P17106 (whole entry, looked up): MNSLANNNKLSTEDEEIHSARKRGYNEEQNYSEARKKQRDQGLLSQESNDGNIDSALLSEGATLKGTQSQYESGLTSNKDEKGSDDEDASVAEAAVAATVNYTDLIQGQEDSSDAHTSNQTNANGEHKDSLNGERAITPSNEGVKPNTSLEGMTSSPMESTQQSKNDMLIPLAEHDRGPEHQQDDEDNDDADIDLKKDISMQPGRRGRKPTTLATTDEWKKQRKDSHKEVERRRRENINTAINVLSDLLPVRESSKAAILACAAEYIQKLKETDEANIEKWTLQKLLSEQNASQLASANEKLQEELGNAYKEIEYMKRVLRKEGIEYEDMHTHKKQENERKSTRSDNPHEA
Sequence of UniProt Q92985 (whole entry, unmodified, looked up): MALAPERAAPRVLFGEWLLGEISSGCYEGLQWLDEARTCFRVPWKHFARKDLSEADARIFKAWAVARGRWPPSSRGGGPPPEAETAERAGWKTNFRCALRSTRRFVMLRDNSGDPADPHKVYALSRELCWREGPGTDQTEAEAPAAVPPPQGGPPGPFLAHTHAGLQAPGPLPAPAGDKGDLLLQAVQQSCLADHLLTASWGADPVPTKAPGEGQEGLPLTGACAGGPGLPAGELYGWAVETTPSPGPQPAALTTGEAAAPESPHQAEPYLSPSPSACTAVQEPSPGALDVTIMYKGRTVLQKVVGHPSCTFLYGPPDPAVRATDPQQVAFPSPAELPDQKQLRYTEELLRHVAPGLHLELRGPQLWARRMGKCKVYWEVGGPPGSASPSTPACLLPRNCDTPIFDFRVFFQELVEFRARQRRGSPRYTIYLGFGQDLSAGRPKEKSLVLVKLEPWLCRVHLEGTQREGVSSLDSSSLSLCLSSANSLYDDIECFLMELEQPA

| Molecule | target | assay | test system | conditions | how to read | quantity | value |
| --- | --- | --- | --- | --- | --- | --- | --- |
| GAACTCAGTCTAGTGCACGTGAGATTACACTGCTAGGTCTTGATTCGCTTGACGCTGCTG | CBF1 full length, N-terminal tag | protein-binding microarray | double-stranded DNA, one strand shown, in vitro | 0.8 µM, whole 60-bp probe, no competitor | higher = stronger binding | fluorescence intensity | 3630 a.u. |
| GCCTAGCACTCAGTTATTAAATTTTCAACTGTGCTAGTCTTGATTCGCTTGACGCTGCTG | Interferon regulatory factor 5, full length, phosphomimetic (IRF5, Homo sapiens, UniProt Q13568-2, residues 1-514, K96S/S451D/S453D/S456D/S462D) | protein-binding microarray | double-stranded DNA, one strand shown, in vitro | 250 nM, 60-bp whole probe, added: salmon DNA 0.4 mg/ml | baseline: random background probes, higher = stronger binding | log fluorescence | 1.02 z-score |
| GAAGAAAAGAGCTACGAGCACGTGCAAATATATTAGGTCTTGATTCGCTTGACGCTGCTG | CBF1 full length, N-terminal tag | protein-binding microarray | double-stranded DNA, one strand shown, in vitro | 0.8 µM, whole 60-bp probe, no competitor | higher = stronger binding | fluorescence intensity | 16600 a.u. |
| ATTCGGAG | Histone acetyltransferase KAT6A, both winged helices, GST fusion (KAT6A, Homo sapiens, UniProt Q92794, residues 1-181) | protein binding microarray | double-stranded DNA, one strand shown, in vitro | not given, 8-mer, flanks averaged, mean of 2 arrays, mostly near background | baseline: not given, higher = stronger binding | E-score | -0.132 |
| GCCTAGCACTTAGATTTCAGACTGGGTTAGTGCTAGGTCTTGATTCGCTTGACGCTGCTG | Interferon regulatory factor 7, full length, phosphomimetic (IRF7, Homo sapiens, UniProt Q92985, residues 1-503, S471D/S472D/S475D/S476D/S477D/S483D/S484D/S487D) | protein-binding microarray | double-stranded DNA, one strand shown, in vitro | 2200 nM top, 60-bp whole probe, added: salmon DNA 0.4 mg/ml | baseline: random background probes, higher = stronger binding | fitted relative affinity | 0.27 z-score |
| GAAATATAATTTGTCCACGTGATATTTCACAGATAGGTCTTGATTCGCTTGACGCTGCTG | CBF1 full length, N-terminal tag | protein-binding microarray | double-stranded DNA, one strand shown, in vitro | 0.8 µM, whole 60-bp probe, no competitor | higher = stronger binding | fluorescence intensity | 10700 a.u. |
| PhoQ, residues 284 288 289 292 302 303 NSMLDC | PhoP, residues 12 14 15 18 19 NNFVT (Escherichia coli, UniProt P23836) | Sort-seq, measured: YFP reporter | E. coli | PhoQ-PhoP variant library, added: 10 µM Mg2+ | baseline: high Mg2+ state, higher = stronger signaling | fold induction | 9.96 |
| GAGTTGGC | Histone acetyltransferase KAT6A, winged helix 2, GST fusion (KAT6A, Homo sapiens, UniProt Q92794, residues 85-181) | protein binding microarray | double-stranded DNA, one strand shown, in vitro | not given, 8-mer, flanks averaged, mean of 2 arrays, mostly near background | baseline: not given, higher = stronger binding | E-score | 0.0983 |

Excerpt of the above:
| Molecule | target | assay | test system | conditions | how to read | quantity | value |
| --- | --- | --- | --- | --- | --- | --- | --- |
| GAGTTGGC | Histone acetyltransferase KAT6A, winged helix 2, GST fusion (KAT6A, Homo sapiens, UniProt Q92794, residues 85-181) | protein binding microarray | double-stranded DNA, one strand shown, in vitro | not given, 8-mer, flanks averaged, mean of 2 arrays, mostly near background | baseline: not given, higher = stronger binding | E-score | 0.0983 |
